Assay results of several laboratories.
Lines come from different studies, so protocols differ. ± marks the error that the study gave.

O=c1[nH]c2ccccc2s1 — log Freundlich coefficient (SPME sorption isotherm; PBS): 1.33
Oc1ccc(Br)c2cccnc12 — log P (oil/water; pH 5.4): 1.95
O=S(=O)(O)c1nc2ccccc2s1 — log Freundlich coefficient (SPME sorption isotherm; PBS): 0.42
CCOC(=O)COc1cccc2c1[n+]([O-])c1cc(Br)c(Br)cc1[n+]2[O-] — log effective permeability (PAMPA; artificial membrane in PBS; 50 µM, 5 h): -5.24
CN1CCN(c2ccc(C(=O)Nc3n[nH]c4ccc(Cc5cc(F)cc(F)c5)cc34)c(NC3CCOCC3)c2)CC1 — log D brain polar lipid (porcine brain polar lipids; 10 µM, pH 7.4, 0.2% DMSO): 3.28 ± 0.03
CC[C@H](C)[C@H](N)C(=O)N[C@H]1CSSC[C@@H](C(=O)N[C@H](C(N)=O)[C@@H](C)O)NC(=O)[C@H](CCCNC(=N)N)NC(=O)[C@H](Cc2c[nH]cn2)NC(=O)[C@H](Cc2c[nH]cn2)NC(=O)CNC(=O)[C@H](Cc2c[nH]c3ccccc23)NC(=O)[C@H](CC(=O)O)NC(=O)[C@H](CCC(N)=O)NC(=O)[C@H](C(C)C)NC(=O)[C@H](C(C)C)NC1=O — log retention factor (RP-HPLC, C18; 28% acetonitrile isocratic; pH 7.4): -0.09
[O-][n+]1c2cc3ccccc3cc2[n+]([O-])c2c(O)cccc21 — log effective permeability (PAMPA; artificial membrane in PBS; 50 µM, 5 h): -7.23
CC[C@H](C)[C@H](NC(=O)[C@H](CCCNC(=N)N)NC(=O)[C@H](CCC(=O)O)NC(C)=O)C(=O)N[C@H]1CSSC[C@@H](C(=O)N[C@H](C(N)=O)[C@@H](C)O)NC(=O)[C@H](CCCNC(=N)N)NC(=O)[C@H](Cc2c[nH]cn2)NC(=O)[C@H](C)NC(=O)CNC(=O)[C@H](Cc2c[nH]c3ccccc23)NC(=O)[C@H](CC(=O)O)NC(=O)[C@H](CCC(N)=O)NC(=O)[C@H](Cc2c[nH]c3ccccc23)NC(=O)[C@H](C(C)C)NC1=O — log retention factor (RP-HPLC, C18; 28% acetonitrile isocratic; pH 7.4): -0.208
C[Si](C)(C)O[Si](C)(C)O[Si](C)(C)C — log KOW (regression; 1-octanol/water; 25 °C): 6.79
COc1cc2nc(c1)CNCc1cc(OC)cc(n1)CNC2 — log K1 (protonation constant, potentiometry; 298 K, ionic strength 0.15 M NaCl): 8.04
c1ccc2c(c1)ccc1ccccc12 — log K(PDMS-water) (fresh water; 12 (unit not given), 20 °C, S30-1 sampler, 30 µm): 3.77 ± 0.05
COc1ccc2c(c1)c(CC(=O)O)c(C)n2C(=O)c1ccc(Cl)cc1 — log Freundlich coefficient (SPME sorption isotherm; PBS): 1.18
CC[C@H](C)[C@H](NC(=O)[C@H](CO)NC(=O)[C@H](CCCNC(=N)N)NC(C)=O)C(=O)N[C@H]1CSSC[C@@H](C(=O)N[C@H](C(N)=O)[C@@H](C)O)NC(=O)[C@H](CCCNC(=N)N)NC(=O)[C@H](Cc2c[nH]cn2)NC(=O)[C@H](C)NC(=O)CNC(=O)[C@H](Cc2c[nH]c3ccccc23)NC(=O)[C@H](CC(=O)O)NC(=O)[C@H](CCC(N)=O)NC(=O)[C@H](Cc2c[nH]c3ccccc23)NC(=O)[C@H](C(C)C)NC1=O — log retention factor (RP-HPLC, C18; 28% acetonitrile isocratic; pH 7.4): 0.13
CCOC(=O)COc1cccc2c1[n+]([O-])c1cc(C)c(C)cc1[n+]2[O-] — log effective permeability (PAMPA; artificial membrane in PBS; 50 µM, 5 h): -4.93
CC[C@H](C)[C@H](NC(C)=O)C(=O)N[C@H]1CSSC[C@@H](C(=O)N[C@H](C(N)=O)[C@@H](C)O)NC(=O)[C@H](CCCNC(=N)N)NC(=O)[C@H](Cc2c[nH]cn2)NC(=O)[C@](C)(CC)NC(=O)CNC(=O)[C@H](Cc2c[nH]c3ccccc23)NC(=O)[C@H](CC(=O)O)NC(=O)[C@H](CCC(N)=O)NC(=O)[C@H](Cc2c[nH]c3ccccc23)NC(=O)[C@H](C(C)C)NC1=O — log retention factor (RP-HPLC, C18; 28% acetonitrile isocratic; pH 7.4): 0.548
c1ccc2cc3ccccc3cc2c1 — log K(PDMS-water) (fresh water; 12 (unit not given), 20 °C, S30-1 sampler, 30 µm): 3.88 ± 0.04
O=C(O)c1ccc2c(c1)nc(NCc1ccccc1)c1ncccc12 — log Papp (PAMPA; PBS; 5 h, pH 7.4): -5.19
CC(=O)N[C@@H](CC(N)=O)C(=O)N[C@@H](CCCNC(=N)N)C(=O)N[C@@H](CC(C)C)C(=O)N[C@H]1CSSC[C@@H](C(=O)N[C@H](C(N)=O)[C@@H](C)O)NC(=O)[C@H](CCCNC(=N)N)NC(=O)[C@H](Cc2c[nH]cn2)NC(=O)[C@H](C)NC(=O)CNC(=O)[C@H](Cc2c[nH]c3ccccc23)NC(=O)[C@H](CC(=O)O)NC(=O)[C@H](CCC(N)=O)NC(=O)[C@H](Cc2c[nH]c3ccccc23)NC(=O)[C@H](C(C)C)NC1=O — log retention factor (RP-HPLC, C18; 28% acetonitrile isocratic; pH 7.4): 0.167
C[Si](C)(C)O[Si](C)(C)C — log KAW (0.7 to 42 µg/L, 12.4 °C): 2.11
[Cl-].[Cl-].[Os+2].c1cnc2c(c1)ccc1cccnc12.c1cnc2c(c1)ccc1cccnc12.c1cnc2c(c1)ccc1cccnc12 — log D (shake flask; 1-octanol/phosphate buffer; pH 7.4): -1.7 ± 0.035
C[C@@H](Oc1cc(-c2cnn(C3CCNCC3)c2)cnc1N)c1c(Cl)ccc(F)c1Cl — log D brain polar lipid (porcine brain polar lipids; 10 µM, pH 7.4, 0.2% DMSO): 2.61 ± 0.01
O=C(O)c1ccc2c(c1)nc(Nc1cccc(Cl)c1)c1ccncc12 — log Papp (PAMPA; PBS; 5 h, pH 7.4): -6.14
Cl.O=C(NO)c1ccc(CN2CCN(c3cccc4cc(S(=O)(=O)c5cccc(F)c5)cnc34)CC2)c(F)c1 — log k(IAM) (IAM chromatography; IAM.PC.DD2 column; pH 7.4, acetonitrile gradient): ~1.2
CC[C@H](C)[C@H](NC(=O)[C@H](CO)NC(=O)[C@H](CCCNC(=N)N)NC(C)=O)C(=O)N[C@H]1CSSC[C@@H](C(=O)N[C@H](C(N)=O)[C@@H](C)O)NC(=O)[C@H](CCCNC(=N)N)NC(=O)[C@H](Cc2c[nH]cn2)NC(=O)[C@H](C)NC(=O)CNC(=O)[C@H](Cc2c[nH]c3ccccc23)NC(=O)[C@H](CC(=O)O)NC(=O)[C@H](CCC(N)=O)NC(=O)[C@H](Cc2ccc3ccccc3c2)NC(=O)[C@H](C(C)C)NC1=O — log retention factor (isocratic RP-HPLC, C18; 32% acetonitrile, phosphate pH 7.4, 1% TFA; 25 °C): 0.091
CCN(CC)C(=O)COc1cccc2c1[n+]([O-])c1cc(C)c(C)cc1[n+]2[O-] — log effective permeability (PAMPA; artificial membrane in PBS; 50 µM, 5 h): -5.18
COc1ccc2cc(CCC[18F])ccc2c1 — log P (n-octanol/0.1 M phosphate buffer; pH 7.4, 25 °C, per radiosynthesis batch): 2.43
CCOC(=O)Oc1cccc2c1[n+]([O-])c1cccc(OC(=O)OCC)c1[n+]2[O-] — log effective permeability (PAMPA; artificial membrane in PBS; 50 µM, 5 h): -4.75
c1cc2nc(c1)CNCc1cccc(n1)CNC2 — log K1 (protonation constant, potentiometry; 298 K, ionic strength 0.15 M NaCl): 8.27
CCOC(=O)COc1cccc2c1[n+]([O-])c1ccccc1[n+]2[O-] — log effective permeability (PAMPA; artificial membrane in PBS; 50 µM, 5 h): -4.93
CC(=O)N[C@@H](CC(N)=O)C(=O)N[C@@H](CC(N)=O)C(=O)N[C@@H](CC(C)C)C(=O)N[C@H]1CSSC[C@@H](C(=O)N[C@H](C(N)=O)[C@@H](C)O)NC(=O)[C@H](CCCNC(=N)N)NC(=O)[C@H](Cc2c[nH]cn2)NC(=O)[C@H](Cc2cccc3ccccc23)NC(=O)CNC(=O)[C@H](Cc2c[nH]c3ccccc23)NC(=O)[C@H](CC(=O)O)NC(=O)[C@H](CCC(N)=O)NC(=O)[C@H](Cc2c[nH]c3ccccc23)NC(=O)[C@H](C(C)C)NC1=O — log retention factor (isocratic RP-HPLC, C18; 32% acetonitrile, phosphate pH 7.4, 1% TFA; 25 °C): 0.32
CCOC(=O)COc1cccc2c1[n+]([O-])c1cccc(O)c1[n+]2[O-] — log effective permeability (PAMPA; artificial membrane in PBS; 50 µM, 5 h): -4.84
CC[C@H](C)[C@H](NC(C)=O)C(=O)N[C@H]1CSSC[C@@H](C(=O)N[C@H](C(N)=O)[C@@H](C)O)NC(=O)[C@H](CCCNC(=N)N)NC(=O)[C@H](Cc2c[nH]cn2)NC(=O)[C@H](C)NC(=O)CNC(=O)[C@H](Cc2c[nH]c3ccccc23)NC(=O)[C@H](CC(=O)O)NC(=O)[C@H](CCC(N)=O)NC(=O)[C@H](Cc2c[nH]c3ccccc23)NC(=O)[C@H](C(C)C)NC1=O — log retention factor (RP-HPLC, C18; 28% acetonitrile isocratic; pH 7.4): 0.426
